Measured values gathered from unrelated publications.
Protocols differ between the studies behind these lines. Numbers after ± are the reported error.

| Compound | assay | test system | setting | how to read | endpoint | result |
| --- | --- | --- | --- | --- | --- | --- |
| CNCc1ccc(-c2[nH]c3cc(F)cc4c3c2CCNC4=O)cc1 |  | human patients | oral, 360 mg twice daily, all grades |  | vomiting incidence | 37.5% |
| CCNCCCNC/C=C\CNCCCNCC | LC-MS/MS | human cancer patients, plasma | intravenous infusion 60 min, 150 mg, median, cycle 1 |  | elimination rate constant | 3.55 h⁻¹ |
| CCCCC[C@H]1CC[C@H](c2ccc(OCC)c(F)c2F)CC1 |  | rat, placenta | 10 ng/mL in perfusate, low dose, mixture of 21 LCMs |  | placental accumulation | 25.6 ± 13 ng/g |
| O=C(N[C@H](Cc1c[nH]c2ccccc12)C(=O)Nc1ccncc1)c1ccc(-c2cc(C(F)(F)F)ccc2F)cc1F |  | Swiss Webster mouse, female, brain | oral, 50 mg/kg, 2 h, 20% HPβCD vehicle |  | concentration | 100 nM |
| C[C@H](CCC(=O)O)[C@H]1CC[C@H]2[C@@H]3[C@H](O)C[C@@H]4C[C@H](O)CC[C@]4(C)[C@H]3CC[C@]12C |  | human, plasma | oral, dose not given, control |  | Cmin | 161 ± 55 nM |
| NC[C@@]1(CC(=O)O)[C@@H]2CC[C@H]3C[C@@H]2[C@@H]1C3 |  | human, severe renal impairment, plasma | dose not given | relative to: normal renal function | unbound AUC(0-t) increase | 276% |
| C[C@H]1OC[C@H](c2cccnc2)N[C@@H]1c1ccc2ccccc2c1 | shake-flask, LC-HRMS | aqueous buffer | 16 h, pH 6.8 |  | solubility | < 4 µM |
| Cc1ccc(Sc2ccccc2N2CCNCC2)c(C)c1 | item: Nausea | healthy adult men | oral, 5 mg daily, 12 days |  | participants with TEAE | 0% |
| CC(C)C[C@H](NC(=O)[C@@H](Cc1c[nH]c2ccccc12)NC(=O)[C@H](Cc1ccc(O)cc1)NC(=O)[C@H](CO)NC(=O)[C@H](Cc1c[nH]c2ccccc12)NC(=O)[C@H](Cc1c[nH]cn1)NC(=O)[C@@H]1CCC(=O)N1)C(=O)N[C@@H](CCCNC(=N)N)C(=O)N1CCC[C@H]1C(=O)NCC(N)=O |  | Chinese CPP children, girls | intramuscular, 22.5 mg, 12 months, day 1, month 6 |  | patients, drug-related metabolic TEAEs | 3.2% |
| CNCCOC12CC3(C)CC(C)(CC(Cn4ncc(-c5ccc(N6CCc7cccc(C(=O)Nc8nc9ccccc9s8)c7C6)nc5C(=O)O)c4C)(C3)C1)C2 |  | beagle dog, male, anaesthetised | intravenous bolus, 0.03 mg/kg, 105 min | relative to: baseline | QRS duration change | -2 ms |
| CCOc1c([C@H](C)n2nc(C)c3c(N)ncnc32)cc(Cl)c(F)c1[C@@H]1CNC(=O)C1 |  | human Hodgkin lymphoma patients, plasma | oral, 20 mg, day 15 |  | Cmin | 395 nM |
| CCCCc1ccc(C#Cc2ccc(OCC)cc2)cc1 |  | rat, placenta | 5000 ng/mL in perfusate, high dose, mixture of 21 LCMs |  | placental accumulation | 347 ± 509 ng/g |
| CCO[C@H]1CCN(Cc2c(OC)cc(C)c3[nH]ccc23)[C@H](c2ccc(C(=O)O)cc2)C1 |  | human moderate hepatic impairment, plasma | oral, 200 mg single dose, median |  | unbound half-life | 20.7 h |
| FC(F)(F)c1ccc(CNc2ccc(Cc3c[nH]c4ncc(Cl)cc34)cn2)cn1 | item: memory impairment | human, advanced solid tumours, all patients | oral, 1000 mg/day, any grade |  | treatment-related adverse events | 4% |
| O=c1[nH]c(=O)n([C@H]2C[C@H](O)[C@@H](CO)O2)cc1CCCC[18F] |  | male CD-1 nu/nu mice, RG2 tumour, spleen | intravenous, dose not given, 2 h |  | biodistribution | 0.24 ± 0.05 %ID/g |
| CNC(=O)c1ccc(-c2cnc3ncc(Cc4ccc5ncccc5c4)n3n2)cc1F |  | Japanese patients | oral, 400 mg, grade 3/4 |  | Dyspnea dose reduction/interruption | 0% |
| C[C@@H](N)C1CCN(S(=O)(=O)c2cccc3cnccc23)CC1 |  | healthy volunteers | 150 mg, fasted |  | participants with dizziness | 33.3% |
| COc1cccc(-c2n[nH]c(SCc3ccccn3)n2)c1OC |  | Sprague-Dawley rats, both sexes | oral dietary, 30 mg/kg/day, day 7, 6 h |  | plasma concentration | 2060 ng/mL |
| CCc1cc(C(=O)NC)c2nccc(N3CCc4c(cc(Cn5ccnc5)cc4-c4cn(C)nc4C(F)(F)F)C3=O)c2c1 | item: CK | Sprague Dawley rat | oral, 50 mg/kg once daily, 7 days | relative to: vehicle | change in clinical chemistry or haematology parameter | -18.8% |
| Nc1cccc2ccc(/C=C/C(=O)c3ccccc3)cc12 |  | toluene | 20 °C |  | Stokes shift | 135 nm |
| Cc1cc([C@H]2C[C@H]3[C@@H](CF)SC(N)=N[C@@]3(c3ccc(F)cc3F)CO2)on1 |  | 129/SVE wild-type mouse, male | subcutaneous, 30 mg/kg, 5 h |  | CSF concentration | 149 nM |
| Cc1cc(Nc2ncnc3ccc(NC4=NC(C)(CO)CO4)cc23)ccc1Oc1ccn2ncnc2c1 (stereo not shown) |  | human, plasma | oral, 300 mg tucatinib single dose, day 1, tucatinib alone |  | Cmax (geometric mean) | 42.6 ng/mL |
| Cc1ccc([C@@H]2O[C@H](CO)[C@@H](O)[C@H](O)[C@H]2O)cc1Cc1ccc(-c2ccc(F)cc2)s1 |  | Japanese type 2 diabetes patients | 100 mg, day 3, 24 h urine collection | relative to: baseline | urinary calcium excretion change | -20.2 mg |

| Compound | assay | test system | setting | how to read | endpoint | result |
| --- | --- | --- | --- | --- | --- | --- |
| C=CC(=O)Nc1cc(Nc2nccc(-c3c[nH]c4ccccc34)n2)c(OC)cc1N(C)CCN(C)C |  | human, plasma | cycle 3 day 1, osimertinib alone, randomized arm |  | Tmax at steady state | 4 h |
| COC(=O)c1ccc([C@@H]2COC[C@H](c3cnn(C)c3)N2)cc1 | shake-flask, LC-HRMS | aqueous buffer | 16 h, pH 6.8 |  | solubility | > 750 µM |
| O=C(N/N=C/c1ccccc1O)c1ccncc1 |  | DMEM cell medium | 57 µM, 7 days, -80 °C, long-term storage |  | stability | 97.9% |
| CCN1/C(=C/C(C)=O)Sc2ccc(F)cc21 |  | cynomolgus monkey | oral, 10 mg/kg, 0.5 h post-dose |  | QT interval | 227 ± 10 ms |
| O=C(Nc1nc2cccc(-c3ccc(CN4CCS(=O)(=O)CC4)cc3)n2n1)C1CC1 | item: lipase increased | human rheumatoid arthritis patients | oral, 30 mg once daily, 4 weeks, regardless of relatedness |  | treatment-emergent adverse events | 0% |
| C#C[C@]1(O)CC[C@H]2[C@@H]3CCC4=CC(=O)CC[C@@H]4[C@H]3CC[C@@]21CC |  | control baculosomes without CYP | 5 µM, 60 min, pH 7.4 | relative to: non-incubated | concentration decrease | ~5% |
| Cc1c(-c2ccc(N3CCc4cccc(C(=O)Nc5nc6ccccc6s5)c4C3)nc2C(=O)O)cnn1CC12CC3(C)CC(C)(C1)CC(OCCNCC[C@H](O)CO)(C3)C2 |  | beagle dog, male, anaesthetised | intravenous infusion, 0.3 mg/kg/min, 120 min | relative to: vehicle | QRS duration change | -2 ms |
| CCCCOc1ccc([C@H]2CC[C@H](CCC)CC2)c(F)c1F |  | rat, placenta | 5000 ng/mL in perfusate, high dose, mixture of 21 LCMs |  | placental accumulation | 395 ± 539 ng/g |
| Cc1cc([C@H]2C[C@H]3[C@@H](C)SC(N)=N[C@@]3(c3ccc(F)cc3F)CO2)on1 |  | male 129/SVE mouse, CSF | subcutaneous, 50 mg/kg, 7 h |  | CSF concentration | 19 nM |
| CN1CCN(c2cccc3c2CCN(C(=O)/C=C/c2c(-n4cnnn4)ccc(Cl)c2F)[C@@H]3C(=O)Nc2ccc(C(=O)O)cc2)C(=O)C1 |  | healthy human subjects | intravenous infusion, 3 mg/h, 5 days |  | discontinuations due to adverse events | 0% |
| O=c1[nH]c(=O)n([C@H]2C[C@H](O)[C@@H](CO)O2)cc1CCCCC[18F] |  | male CD-1 nu/nu mice, RG2 tumour, liver | intravenous, dose not given, 2 h |  | biodistribution | 0.38 ± 0.05 %ID/g |
| COc1cccc(OC)c1-c1cc(C(=O)NC2(C(=O)O)C3CC4CC(C3)CC2C4)nn1-c1ccc(C(=O)N(C)CCCN(C)CCCN(C)C(=O)CN2CCN(CC(=O)[O-])CCN(CC(=O)[O-])CCN(CC(=O)[O-])CC2)cc1C(C)C.[177Lu+3] (stereo not shown) |  | mouse, HT-29 xenograft | 72 h post injection, biodistribution | relative to: tumour over bone uptake | tumour-to-bone ratio | 27.4 |
| CCOC(=O)N1C[C@@H](c2cc(F)c(O)c(F)c2)N[C@@H](c2cc3ccccc3cc2OC)C1 | shake-flask, LC-HRMS | aqueous buffer | 16 h, pH 6.8 |  | solubility | < 4 µM |
| COc1ccc([C@@H](O)c2cc(-c3ncnc4cc(N5CCOCC5)ccc34)c(F)cc2Cl)nn1 |  | locally advanced rectal cancer | all dose levels overall, added: capecitabine and radiotherapy |  | TEAE, rectal haemorrhage | 26% |
| COc1cc(C(=O)N2CCC3(CC2)CC(=O)c2c(cnn2C(C)C)C3)cc(-c2ccc(C(=O)O)cc2)n1 |  | human, fasting serum | 40 mg once daily, day 13, adjusted geometric mean | relative to: placebo | HDL cholesterol change from baseline | -13.7% |
| N#Cc1ccc2c(c1)[C@H]1CCCN(C(=O)c3ccc4[nH]cnc4c3)[C@H]1C2 |  | human, female | 360 mg, day 7 |  | androstenedione level | 5.4 nmol/L |
| COCCOc1cnc2ccn([C@H](C)c3nnc4c(F)cc(-c5cnn(C)c5)cn34)c(=O)c2c1 |  | patients, plasma | oral, 400 mg once daily, day 1 |  | Cmax | 3310 ng/mL |
| NC1(C(=O)N[C@@H](CCO)c2ccc(Cl)cc2)CCN(c2nc[nH]c3nccc2-3)CC1 |  | metastatic CRPC patients | 320 mg b.i.d., any grade, treatment-related, added: enzalutamide 160 mg daily |  | incidence of Erythema | 33.3% |
| C[C@@H](Nc1cc(F)cc(F)c1)c1cc(C(=O)N(C)C)cc2c(=O)cc(N3CCOCC3)oc12 | item: Diarrhea | advanced solid tumour patients | oral, dose not given, dose finding |  | related serious adverse events | 3.2% |
| Cc1noc(C)c1Cn1cc(N2C(=O)CN(Cc3cccc(O)c3)C2=O)cn1 |  | pooled rat liver microsomes Sprague-Dawley | 1 µM, 30 min, pH 7.4 |  | remaining parent | 70 % peak area |
| CC[C@H](C)[C@H](NC(=O)[C@H](Cc1ccccc1)NC(=O)[C@H](CCC(=O)O)NC(=O)[C@H](CCCCNC(=O)COCCOCCNC(=O)COCCOCCNC(=O)CC[C@H](NC(=O)CCCCCCCCCCCCCCCCC(=O)O)C(=O)O)NC(=O)[C@H](C)NC(=O)[C@H](C)NC(=O)[C@H](CCC(N)=O)NC(=O)CNC(=O)[C@H](CCC(=O)O)NC(=O)[C@H](CC(C)C)NC(=O)[C@H](Cc1ccc(O)cc1)NC(=O)[C@H](CO)NC(=O)[C@H](CO)NC(=O)[C@@H](NC(=O)[C@H](CC(=O)O)NC(=O)[C@H](CO)NC(=O)[C@@H](NC(=O)[C@H](Cc1ccccc1)NC(=O)[C@@H](NC(=O)CNC(=O)[C@H](CCC(=O)O)NC(=O)C(C)(C)NC(=O)[C@@H](N)Cc1cnc[nH]1)[C@@H](C)O)[C@@H](C)O)C(C)C)C(=O)N[C@@H](C)C(=O)N[C@@H](Cc1c[nH]c2ccccc12)C(=O)N[C@@H](CC(C)C)C(=O)N[C@H](C(=O)N[C@@H](CCCNC(=N)N)C(=O)NCC(=O)N[C@@H](CCCNC(=N)N)C(=O)NCC(=O)O)C(C)C |  | healthy humans | subcutaneous, 0.25 to 1.5 mg weekly, escalated, 16 weeks, Mild severity |  | subjects with adverse events | 75.9% |
| O=C(O)CCCOc1ccc([18F])cc1-c1cc(-c2ccccc2C(F)(F)F)n(-c2ccccc2)n1 | gamma counting | male ddY mice, lung | intravenous, 2.1 MBq, 1 min |  | radioactivity uptake | 1.42 ± 0.73 SUV |
| O=C(O)CCC(=O)O.[2H]C([2H])([2H])Oc1cc(C)c2[nH]ccc2c1CN1CC[C@@H](C2CC2)C[C@H]1c1ccc(C(=O)O)cc1 | multiple ascending dose | healthy Chinese subjects | 100 mg twice daily |  | subjects with papular urticaria TEAE | 0% |

For quick reference, copied from above:
| Compound | assay | test system | setting | how to read | endpoint | result |
| --- | --- | --- | --- | --- | --- | --- |
| O=c1[nH]c(=O)n([C@H]2C[C@H](O)[C@@H](CO)O2)cc1CCCCC[18F] |  | male CD-1 nu/nu mice, RG2 tumour, liver | intravenous, dose not given, 2 h |  | biodistribution | 0.38 ± 0.05 %ID/g |
| COc1cccc(OC)c1-c1cc(C(=O)NC2(C(=O)O)C3CC4CC(C3)CC2C4)nn1-c1ccc(C(=O)N(C)CCCN(C)CCCN(C)C(=O)CN2CCN(CC(=O)[O-])CCN(CC(=O)[O-])CCN(CC(=O)[O-])CC2)cc1C(C)C.[177Lu+3] (stereo not shown) |  | mouse, HT-29 xenograft | 72 h post injection, biodistribution | relative to: tumour over bone uptake | tumour-to-bone ratio | 27.4 |
| CCOC(=O)N1C[C@@H](c2cc(F)c(O)c(F)c2)N[C@@H](c2cc3ccccc3cc2OC)C1 | shake-flask, LC-HRMS | aqueous buffer | 16 h, pH 6.8 |  | solubility | < 4 µM |
| COc1ccc([C@@H](O)c2cc(-c3ncnc4cc(N5CCOCC5)ccc34)c(F)cc2Cl)nn1 |  | locally advanced rectal cancer | all dose levels overall, added: capecitabine and radiotherapy |  | TEAE, rectal haemorrhage | 26% |
| COc1cc(C(=O)N2CCC3(CC2)CC(=O)c2c(cnn2C(C)C)C3)cc(-c2ccc(C(=O)O)cc2)n1 |  | human, fasting serum | 40 mg once daily, day 13, adjusted geometric mean | relative to: placebo | HDL cholesterol change from baseline | -13.7% |
| N#Cc1ccc2c(c1)[C@H]1CCCN(C(=O)c3ccc4[nH]cnc4c3)[C@H]1C2 |  | human, female | 360 mg, day 7 |  | androstenedione level | 5.4 nmol/L |
| COCCOc1cnc2ccn([C@H](C)c3nnc4c(F)cc(-c5cnn(C)c5)cn34)c(=O)c2c1 |  | patients, plasma | oral, 400 mg once daily, day 1 |  | Cmax | 3310 ng/mL |
